Measured values of several laboratories.
Parts stem from different laboratories: compare values within a part only. “And” joins repeats or separate records; there may be more than shown.
UniProt Q5VT25, sequence (whole entry, looked up): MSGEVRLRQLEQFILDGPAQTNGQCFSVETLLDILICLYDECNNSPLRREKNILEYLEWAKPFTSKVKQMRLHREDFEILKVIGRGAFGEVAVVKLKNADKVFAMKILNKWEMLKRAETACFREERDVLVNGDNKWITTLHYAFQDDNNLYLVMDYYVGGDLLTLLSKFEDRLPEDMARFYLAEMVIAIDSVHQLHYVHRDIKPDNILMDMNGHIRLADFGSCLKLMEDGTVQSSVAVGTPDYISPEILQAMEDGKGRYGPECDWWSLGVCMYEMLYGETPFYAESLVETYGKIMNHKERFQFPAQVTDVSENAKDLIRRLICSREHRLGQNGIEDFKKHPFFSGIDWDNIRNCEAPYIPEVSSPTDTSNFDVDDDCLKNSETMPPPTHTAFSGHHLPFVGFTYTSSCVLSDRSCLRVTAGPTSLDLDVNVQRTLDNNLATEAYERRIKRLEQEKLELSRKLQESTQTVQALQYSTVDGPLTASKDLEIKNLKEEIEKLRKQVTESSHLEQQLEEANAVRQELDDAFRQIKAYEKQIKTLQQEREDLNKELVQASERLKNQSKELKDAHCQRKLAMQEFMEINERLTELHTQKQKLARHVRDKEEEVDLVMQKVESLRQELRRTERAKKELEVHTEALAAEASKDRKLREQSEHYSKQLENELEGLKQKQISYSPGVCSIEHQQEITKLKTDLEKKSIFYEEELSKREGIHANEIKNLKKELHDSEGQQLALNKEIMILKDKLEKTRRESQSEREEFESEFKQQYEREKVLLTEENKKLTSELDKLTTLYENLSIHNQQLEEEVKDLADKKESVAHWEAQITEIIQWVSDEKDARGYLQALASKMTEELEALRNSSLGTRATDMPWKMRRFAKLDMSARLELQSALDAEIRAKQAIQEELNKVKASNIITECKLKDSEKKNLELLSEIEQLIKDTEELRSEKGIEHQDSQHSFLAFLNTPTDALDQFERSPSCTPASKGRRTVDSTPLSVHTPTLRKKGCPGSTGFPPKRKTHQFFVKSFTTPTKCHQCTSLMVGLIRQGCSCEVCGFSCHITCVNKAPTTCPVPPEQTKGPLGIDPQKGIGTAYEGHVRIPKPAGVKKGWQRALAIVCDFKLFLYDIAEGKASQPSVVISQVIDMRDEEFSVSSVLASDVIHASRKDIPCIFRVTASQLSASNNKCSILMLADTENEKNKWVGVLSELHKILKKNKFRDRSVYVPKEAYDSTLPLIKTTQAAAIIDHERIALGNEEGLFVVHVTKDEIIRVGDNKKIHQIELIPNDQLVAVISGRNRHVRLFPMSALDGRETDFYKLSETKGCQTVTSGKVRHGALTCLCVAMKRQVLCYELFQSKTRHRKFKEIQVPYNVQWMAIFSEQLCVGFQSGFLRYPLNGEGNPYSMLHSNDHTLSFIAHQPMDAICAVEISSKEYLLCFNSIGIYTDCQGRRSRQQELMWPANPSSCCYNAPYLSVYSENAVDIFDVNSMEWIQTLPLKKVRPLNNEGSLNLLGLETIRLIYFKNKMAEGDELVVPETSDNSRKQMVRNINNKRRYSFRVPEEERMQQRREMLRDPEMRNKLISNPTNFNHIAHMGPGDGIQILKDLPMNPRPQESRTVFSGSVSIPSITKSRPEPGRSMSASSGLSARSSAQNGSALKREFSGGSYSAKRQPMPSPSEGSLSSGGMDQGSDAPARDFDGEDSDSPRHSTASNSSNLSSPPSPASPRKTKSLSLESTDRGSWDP
UniProt Q96GD4, sequence (whole entry, looked up): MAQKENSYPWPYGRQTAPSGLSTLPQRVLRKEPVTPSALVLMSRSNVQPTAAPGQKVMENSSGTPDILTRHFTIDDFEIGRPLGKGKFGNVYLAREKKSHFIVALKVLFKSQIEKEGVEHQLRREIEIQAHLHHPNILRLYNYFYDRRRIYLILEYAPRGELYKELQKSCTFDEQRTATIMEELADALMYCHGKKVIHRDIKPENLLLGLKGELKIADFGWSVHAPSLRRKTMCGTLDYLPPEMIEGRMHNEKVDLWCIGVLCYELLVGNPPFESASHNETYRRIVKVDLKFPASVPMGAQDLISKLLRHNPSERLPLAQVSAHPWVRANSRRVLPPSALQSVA

Sample 1 — observed: enzyme activity; concentration: 10 µM; relative to: untreated control
SMILES: Cc1sc(C(=O)NC2COC2)cc1-n1cc(NC(=O)Nc2c(F)cccc2Cl)cn1
Rhodopsin kinase GRK7 (GRK7, Homo sapiens, UniProt Q8WTQ7) — remaining activity: 98.3%.
It gave 102% for remaining activity (Serine/threonine-protein kinase MRCK alpha (CDC42BPA, Homo sapiens, UniProt Q5VT25)).
It gave 91.8% for remaining activity (Cyclin-dependent kinase 8, with cyclin C (CDK8, Homo sapiens, UniProt P49336)).
The remaining activity was 94.6% (Receptor tyrosine-protein kinase erbB-4 (ERBB4, Homo sapiens, UniProt Q15303)).
The remaining activity was 95% (Tyrosine-protein kinase JAK2 (JAK2, Homo sapiens, UniProt O60674)).
Activin receptor type-1 (ACVR1, Homo sapiens, UniProt Q04771) — remaining activity: 104%.
The remaining activity was 106% (Serine/threonine-protein kinase 4 (STK4, Homo sapiens, UniProt Q13043)).
For Cell division cycle 7-related protein kinase, with DBF4 (CDC7, Homo sapiens, UniProt O00311): remaining activity read 99.5%.
For Mitogen-activated protein kinase kinase kinase 5 (MAP3K5, Homo sapiens, UniProt Q99683): remaining activity read 89.7%.
It gave 92.1% for remaining activity (Tau-tubulin kinase 2 (TTBK2, Homo sapiens, UniProt Q6IQ55)).
For Protein kinase C eta type (PRKCH, Homo sapiens, UniProt P24723): remaining activity read 84.4%.
It gave 101% for remaining activity (Bone morphogenetic protein receptor type-1B (BMPR1B, Homo sapiens, UniProt O00238)).

Sample 2 — observed: enzyme activity; action: inhibitor; concentration: 77 µM; relative to: untreated
Target: DNA polymerase theta, ATPase domain (POLQ, Homo sapiens, UniProt O75417)
UniProt O75417, sequence (whole entry, unmodified, looked up): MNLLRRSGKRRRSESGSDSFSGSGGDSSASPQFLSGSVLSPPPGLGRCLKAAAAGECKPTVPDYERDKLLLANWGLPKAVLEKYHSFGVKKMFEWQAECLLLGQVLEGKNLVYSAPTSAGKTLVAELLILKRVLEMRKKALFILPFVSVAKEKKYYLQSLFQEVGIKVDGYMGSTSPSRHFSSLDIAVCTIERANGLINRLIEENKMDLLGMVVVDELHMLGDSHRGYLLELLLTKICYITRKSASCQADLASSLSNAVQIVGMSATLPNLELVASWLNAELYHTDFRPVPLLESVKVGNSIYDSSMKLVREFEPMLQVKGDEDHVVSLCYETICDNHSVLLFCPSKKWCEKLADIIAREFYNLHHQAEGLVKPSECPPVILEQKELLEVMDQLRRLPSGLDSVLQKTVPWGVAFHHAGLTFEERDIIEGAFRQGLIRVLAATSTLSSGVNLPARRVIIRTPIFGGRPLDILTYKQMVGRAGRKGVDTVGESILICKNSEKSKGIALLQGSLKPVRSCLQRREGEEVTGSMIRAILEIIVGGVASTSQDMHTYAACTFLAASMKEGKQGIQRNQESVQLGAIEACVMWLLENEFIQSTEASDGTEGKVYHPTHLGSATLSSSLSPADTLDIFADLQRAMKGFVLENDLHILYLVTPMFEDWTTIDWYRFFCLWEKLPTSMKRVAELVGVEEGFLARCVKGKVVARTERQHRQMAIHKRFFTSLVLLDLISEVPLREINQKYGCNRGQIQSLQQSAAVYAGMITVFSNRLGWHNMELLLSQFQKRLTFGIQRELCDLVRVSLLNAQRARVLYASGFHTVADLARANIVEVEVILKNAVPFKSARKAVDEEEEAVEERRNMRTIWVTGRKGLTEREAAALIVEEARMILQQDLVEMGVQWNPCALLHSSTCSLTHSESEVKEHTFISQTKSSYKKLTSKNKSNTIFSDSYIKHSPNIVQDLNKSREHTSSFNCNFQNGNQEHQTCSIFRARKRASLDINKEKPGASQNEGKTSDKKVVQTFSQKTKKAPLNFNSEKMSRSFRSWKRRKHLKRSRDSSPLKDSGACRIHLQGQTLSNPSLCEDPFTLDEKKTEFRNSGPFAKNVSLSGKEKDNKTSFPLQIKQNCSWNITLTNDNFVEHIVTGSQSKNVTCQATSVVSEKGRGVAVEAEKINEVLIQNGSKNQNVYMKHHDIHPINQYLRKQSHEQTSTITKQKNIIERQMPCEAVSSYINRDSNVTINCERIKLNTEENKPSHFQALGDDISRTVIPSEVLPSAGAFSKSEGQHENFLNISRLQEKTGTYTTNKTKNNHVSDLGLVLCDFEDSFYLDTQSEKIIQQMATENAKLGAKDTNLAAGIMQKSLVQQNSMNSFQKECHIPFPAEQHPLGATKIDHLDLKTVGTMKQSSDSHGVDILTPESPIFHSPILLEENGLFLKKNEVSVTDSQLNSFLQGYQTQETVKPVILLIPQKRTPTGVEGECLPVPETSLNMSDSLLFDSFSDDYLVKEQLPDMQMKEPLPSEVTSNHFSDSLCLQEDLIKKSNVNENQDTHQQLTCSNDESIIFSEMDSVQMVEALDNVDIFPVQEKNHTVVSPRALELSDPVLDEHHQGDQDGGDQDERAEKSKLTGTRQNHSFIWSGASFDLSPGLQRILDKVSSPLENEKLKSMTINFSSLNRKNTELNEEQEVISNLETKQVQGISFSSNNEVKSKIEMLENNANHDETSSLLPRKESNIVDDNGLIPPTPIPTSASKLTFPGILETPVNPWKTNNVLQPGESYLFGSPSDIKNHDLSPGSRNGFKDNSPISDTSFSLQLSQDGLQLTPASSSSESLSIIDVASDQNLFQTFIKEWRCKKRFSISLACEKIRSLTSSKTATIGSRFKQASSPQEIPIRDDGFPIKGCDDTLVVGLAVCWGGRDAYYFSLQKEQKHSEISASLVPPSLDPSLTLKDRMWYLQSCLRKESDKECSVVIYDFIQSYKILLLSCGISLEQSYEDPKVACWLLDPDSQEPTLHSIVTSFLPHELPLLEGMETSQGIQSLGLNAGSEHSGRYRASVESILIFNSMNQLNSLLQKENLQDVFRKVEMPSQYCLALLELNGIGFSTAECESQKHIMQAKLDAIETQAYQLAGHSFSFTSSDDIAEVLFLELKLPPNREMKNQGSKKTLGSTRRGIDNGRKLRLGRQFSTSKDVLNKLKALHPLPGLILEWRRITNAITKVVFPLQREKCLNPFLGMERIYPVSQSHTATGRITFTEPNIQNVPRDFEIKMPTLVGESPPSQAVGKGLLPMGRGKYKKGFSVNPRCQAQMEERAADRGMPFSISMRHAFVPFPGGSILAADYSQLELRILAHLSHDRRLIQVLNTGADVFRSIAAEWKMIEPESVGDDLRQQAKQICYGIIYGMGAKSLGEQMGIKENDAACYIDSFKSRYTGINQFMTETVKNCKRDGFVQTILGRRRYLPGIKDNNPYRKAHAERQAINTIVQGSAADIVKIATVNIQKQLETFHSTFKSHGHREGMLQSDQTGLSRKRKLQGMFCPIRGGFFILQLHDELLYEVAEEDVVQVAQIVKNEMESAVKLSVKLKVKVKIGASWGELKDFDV
The remaining activity of `Nc1cccc2c1C(=O)N(C1CCC(=O)NC1=O)C2=O` (stereo not shown) is reported as 98.4%.
For `COc1ccc(CCC(=O)Nc2nc3ccc(Cl)cc3s2)cc1OC`, the remaining activity was 102%.
`Cc1nc(Nc2ncc(C(=O)Nc3c(C)cccc3Cl)s2)cc(N2CCN(CCO)CC2)n1` gave a remaining activity of 99.6% and 95.9% and 94.4% and 97.3%.
For `CCOc1ccc2nc3cc(N)ccc3c(N)c2c1`, the remaining activity was 68.3%.
`C[N+]1(C)CCCC(OC(=O)C(O)(c2ccccc2)c2ccccc2)C1` (stereo not shown) gave a remaining activity of 108%.
`O=c1[nH]ccc2c(O)cccc12` has a remaining activity of 108%.
With `N=C(N)c1ccc(OCCCCCOc2ccc(C(=N)N)cc2)cc1` the remaining activity was 93.8%.
`CC(C)(C)C#Cc1cc(N(C(=O)[C@H]2CC[C@H](C)CC2)[C@H]2CC[C@H](O)CC2)c(C(=O)O)s1` has a remaining activity of 92.7%.
The remaining activity of `CC(C)c1cnn2c(NCc3ccccc3)cc(NCCCCCCN)nc12` is reported as 90.9%.
For `O=C(O)/C=C/C(=O)O`, the remaining activity was 95.9%.
The remaining activity of `COc1c/c(=C2\C=c3ccccc3=N2)[nH]/c1=C\c1[nH]c(C)cc1C` is reported as 101%.

Sample 3 — action: antagonist
Target: Beta-1 adrenergic receptor (ADRB1, Homo sapiens, UniProt P08588)
UniProt P08588, sequence (whole entry, looked up): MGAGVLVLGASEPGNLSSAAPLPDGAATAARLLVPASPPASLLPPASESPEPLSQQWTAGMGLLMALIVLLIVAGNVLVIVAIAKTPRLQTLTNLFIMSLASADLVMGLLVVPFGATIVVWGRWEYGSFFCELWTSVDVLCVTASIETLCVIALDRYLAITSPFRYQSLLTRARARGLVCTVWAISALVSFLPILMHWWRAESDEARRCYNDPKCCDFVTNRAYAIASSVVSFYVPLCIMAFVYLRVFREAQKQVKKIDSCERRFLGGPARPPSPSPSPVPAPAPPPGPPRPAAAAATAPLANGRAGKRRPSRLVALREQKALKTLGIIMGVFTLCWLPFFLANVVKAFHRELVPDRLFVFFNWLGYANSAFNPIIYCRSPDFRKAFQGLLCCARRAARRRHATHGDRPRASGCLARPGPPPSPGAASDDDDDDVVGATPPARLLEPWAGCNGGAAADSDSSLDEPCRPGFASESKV
With `COc1ccccc1N1CCN(C(C)C(=O)NC2CCC(C)CC2)CC1` (stereo not shown) the IC50 was ≥ 100 µM.
For `Cc1cc2oc(=O)cc(COn3nnc4ccc(Cl)cc43)c2cc1Cl`, the IC50 was ≥ 100 µM.
For `O=c1cc(-c2ccccn2)oc2c(NC3CCOCC3)nccc12`, the IC50 was ≥ 100 µM.
For `CN(CCC(O)c1ccccc1)C(=O)c1coc(Cn2cnc3ccccc32)n1` (stereo not shown), the IC50 was ≥ 100 µM.
`Fc1ccc(-c2c[nH]c([C@@H]3COCCN3Cc3cnc4ccccc4c3)n2)c(F)c1` gave an IC50 of ≥ 100 µM.
The IC50 of `CC(C)(O)Cn1c(NC(=O)c2ccc(-c3cn[nH]c3)s2)nc2cc(N3CCOC3=O)ccc21` is reported as ≥ 100 µM.
The IC50 of `Ic1ccc(Nc2nc(NCCN3CCOCC3)nc(N3CCOCC3)n2)cc1` is reported as ≥ 100 µM.
`COc1ccc(OC)c(C(O)Cn2ccn3nc(-c4ccc(C(C)C)cc4)cc3c2=O)c1` (stereo not shown) gave an IC50 of ≥ 100 µM.
The IC50 of `OC(CN1CCN(c2cccc(Cl)c2)CC1)C(c1ccccc1)c1ccccc1` (stereo not shown) is reported as ≥ 100 µM.
With `CN1CCC(Cn2ccc3c(N4CCOCC4)nc(-c4cccc5[nH]ncc45)cc32)CC1` the IC50 was ≥ 100 µM.
For `FC(F)(F)c1cccc(C2=NOC3(CCN(Cc4ccsc4)C3)C2)c1` (stereo not shown), the IC50 was ≥ 100 µM.

Sample 4 — observed: cell-free assay; technique: competition with immobilised ligand; concentration: 0.1 µM
SMILES: CC(C)CC(=O)N1CCc2nc(-c3ccc(Br)cc3)nc(N(C)Cc3ccccc3)c2C1
For Epithelial discoidin domain-containing receptor 1 (DDR1, Homo sapiens, UniProt Q08345): remaining binding read 100%.
It gave 100% for remaining binding (Fibroblast growth factor receptor 3 (FGFR3, Homo sapiens, UniProt P22607, G697C)).
The remaining binding was 100% (Inhibitor of nuclear factor kappa-B kinase subunit beta (IKBKB, Homo sapiens, UniProt O14920)).
It gave 100% for remaining binding (Mast/stem cell growth factor receptor Kit (KIT, Homo sapiens, UniProt P10721, D816V)).
For Death-associated protein kinase 1 (DAPK1, Homo sapiens, UniProt P53355): remaining binding read 100%.
Aurora kinase B (AURKB, Homo sapiens, UniProt Q96GD4) — remaining binding: 92%.
It gave 79% for remaining binding (Mitogen-activated protein kinase 12 (MAPK12, Homo sapiens, UniProt P53778)).
It gave 99% for remaining binding (Activated CDC42 kinase 1 (TNK2, Homo sapiens, UniProt Q07912)).
The remaining binding was 100% (eIF-2-alpha kinase GCN2, C-terminal kinase domain (EIF2AK4, Homo sapiens, UniProt Q9P2K8, S808G)).
Cyclin-dependent kinase 14 (CDK14, Homo sapiens, UniProt O94921) — remaining binding: 100%.
For Serine/threonine-protein kinase Nek1 (NEK1, Homo sapiens, UniProt Q96PY6): remaining binding read 100%.
It gave 100% for remaining binding (Calcium/calmodulin-dependent protein kinase type IV (CAMK4, Homo sapiens, UniProt Q16566)).
It gave 100% for remaining binding (Interleukin-1 receptor-associated kinase 1 (IRAK1, Homo sapiens, UniProt P51617)).
The remaining binding was 100% (Cyclin-dependent kinase 15 (CDK15, Homo sapiens, UniProt Q96Q40)).
For Serine/threonine-protein kinase N1 (PKN1, Homo sapiens, UniProt Q16512): remaining binding read 100%.
For Epidermal growth factor receptor (EGFR, Homo sapiens, UniProt P00533): remaining binding read 100%.
For ALK tyrosine kinase receptor (ALK, Homo sapiens, UniProt Q9UM73, L1196M): remaining binding read 100%.
It gave 100% for remaining binding (Fibroblast growth factor receptor 2 (FGFR2, Homo sapiens, UniProt P21802)).
The remaining binding was 100% (Eukaryotic translation initiation factor 2-alpha kinase 1 (EIF2AK1, Homo sapiens, UniProt Q9BQI3)).
The remaining binding was 100% (Dual specificity protein kinase CLK3 (CLK3, Homo sapiens, UniProt P49761)).
Casein kinase II subunit alpha (CSNK2A1, Homo sapiens, UniProt P68400) — remaining binding: 100%.

Some of these lines once more (sample 4):
Cyclin-dependent kinase 14 (CDK14, Homo sapiens, UniProt O94921) — remaining binding: 100%.
For Serine/threonine-protein kinase Nek1 (NEK1, Homo sapiens, UniProt Q96PY6): remaining binding read 100%.
It gave 100% for remaining binding (Calcium/calmodulin-dependent protein kinase type IV (CAMK4, Homo sapiens, UniProt Q16566)).
It gave 100% for remaining binding (Interleukin-1 receptor-associated kinase 1 (IRAK1, Homo sapiens, UniProt P51617)).
The remaining binding was 100% (Cyclin-dependent kinase 15 (CDK15, Homo sapiens, UniProt Q96Q40)).
For Serine/threonine-protein kinase N1 (PKN1, Homo sapiens, UniProt Q16512): remaining binding read 100%.
For Epidermal growth factor receptor (EGFR, Homo sapiens, UniProt P00533): remaining binding read 100%.
